Assay results from different studies.
Every numbered part comes from another study and shows a few of its results, in no order.

Series 1
Target: Interferon regulatory factor 5, full length, phosphomimetic (IRF5, Homo sapiens, UniProt Q13568-2, residues 1-514, S451D/S453D/S456D/S462D)
Method: protein-binding microarray
Form: double-stranded DNA, one strand shown
Matrix: in vitro
Concentration: 940 nM top
Notes: 60-bp whole probe
Together with: salmon DNA 0.4 mg/ml
Relative to: random background probes
Reading: higher = stronger binding
Endpoint: fitted relative affinity
Shared flanks, not repeated: GCCTAGCAC … GTCTTGATTCGCTTGACGCTGCTG
TTAGAACTGGGGTTTCGCTTAGTGCTA: 2.74 z-score
GACGGACTGGACTTTCGGGGCGTGCTA: 0.329 z-score
TTAGACTTCGGGACTGGATTAGTGCTA: -0.271 z-score
TACGGACTGGGTCTCGGGACGTGCTAG: -0.277 z-score
GACGGTATCTGGTATCGGGACGTGCTA: 3 z-score
TTAGGACTGGGTATCGGTTCGTGCTAG: 2.77 z-score
CGAGACCTCGTCTCTATCAAAGTGCTA: 0.413 z-score
GCCCCTCTCCTCTCAGGAGCTGTGCTA: -0.0475 z-score
ATTTTGAGGTGGAGAGATAAGTGCTAG: -0.101 z-score
TTCTTTTTTTTCTTTAAAAGGTGCTAG: 0.947 z-score
GACGGACGGGGTATCGGGACGTGCTAG: 0.746 z-score
GACGGTAGCGGTTTCGGGACGTGCTAG: 3.28 z-score
TTAGGTATCCCACTGCTTTAGTGCTAG: 0.294 z-score
GGTCTTCTGGGCTGTTTGGTCGTGCTA: -0.193 z-score
TTAGGACTGGGCTTTCGGTTAGTGCTA: 1.1 z-score
TTAGGTCTCATACTGCTTTAGTGCTAG: 0.846 z-score
TTCCCTCCCTAATTCTGATTGTGCTAG: 0.983 z-score
TTAGATTTCACTTTCGATTAGTGCTAG: 5.82 z-score

Series 2
Target: RNA binding protein fox-1 homolog 2, RRM domain, GST-SBP tag (RBFOX2, Homo sapiens, UniProt O43251-10, residues 100-194)
Method: RNA Bind-n-Seq
Form: RNA
Matrix: in vitro
Concentration: 365 nM
Notes: natural RNA segment, single round, ends assumed
Relative to: no-protein control
Reading: higher = stronger binding
Endpoint: RBNS enrichment (R)
Shared flanks, not repeated: GGGAGUUCUACAGUCCGACGAUC … UGGAAUUCUCGGGUGCCAA
Residues (chain): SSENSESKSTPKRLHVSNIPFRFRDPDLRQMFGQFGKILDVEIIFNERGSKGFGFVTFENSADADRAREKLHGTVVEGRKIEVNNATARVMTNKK
UUUUUAGCCGUAAUUAAAGAAAAAAAAAGUCCUCUGUGAGGAAUAUUCUCUAUUUUAAAUACUUUUAGUAUGUACUGUGUAUGACUCAUUACCAUUUUGAGGGGAUUUAU: 0.617
ACACUGAUUCAGGCCUUGAGAGUCAAGCCCAAGAGCUCCCUUGGCCCUGUUCCCCACUCCCUCCACUGGCCUCUGCUGUUCCUGUCUUUGCUCACACCCUCACAGCUGCU: 0.736
UCAAAAACACUAUCAUUUCAACAUAGGAUCAAUAUAAAAAUUAUUAAUGAGUUAUUUUACUUUUUUUCAUAUUAGGCCUUUGAAAUUCAGUGUGUAUUAAACACAUCUCA: 0.583
UCCUACUUCGUUCCCCCUUUGUAAGUCUCUGGAGGAUGUGACCAAGGUCUCCCGUGAGUGUCUGUCGGGCACCCAGGUUGUAGGUGUUUGAGAUUCUGUAGGAGGGAGGG: 0.761
CUCAUUUACAAACUUAGGUUGGGAGCUUGGGUUUCCUGUCUCACUUCCAAAAGCCUUCAAGAUGGCAGCAGAUGGACACACCCUCUCAUUUCUUGUGUCUUGUCUGUCAG: 0.275
AAUUUCUGGGAGAAAAAAAAUUGAGGAAAUAAAGUUAAAAAAUUGACAUUCAUUGAGCCAAAAGAGAUGUGGAGAAACAUUUUUCACCUUUCUGUUUGGCCUGAUUAACA: 0.45
CUCAGUUGAAAGAUUUCUUCUUUGAAAGGUCAAGACCGUGAACUGAAAAAAGUGUUGGCCUUUUUGCGGGACCAGAUUUUUAAGAUAAAAUAAAUAUUUUUACUUCUGUC: 0.654
UAAUGUUGCCUGCAGCCCACAUAAAGUGCAGGCAGGAUCAGAAGUAGCCAAGUAGGUUCACUGAGGUUCCAGACUCUUCCACUGGCCUGGGGCCAUGGACAUCUUGUGAG: 0.707

Series 3
Target: Centromere-binding protein 1, full length, N-terminal tag (CBF1, Saccharomyces cerevisiae, UniProt P17106, residues 1-351)
Sequence of UniProt P17106 (whole entry, looked up): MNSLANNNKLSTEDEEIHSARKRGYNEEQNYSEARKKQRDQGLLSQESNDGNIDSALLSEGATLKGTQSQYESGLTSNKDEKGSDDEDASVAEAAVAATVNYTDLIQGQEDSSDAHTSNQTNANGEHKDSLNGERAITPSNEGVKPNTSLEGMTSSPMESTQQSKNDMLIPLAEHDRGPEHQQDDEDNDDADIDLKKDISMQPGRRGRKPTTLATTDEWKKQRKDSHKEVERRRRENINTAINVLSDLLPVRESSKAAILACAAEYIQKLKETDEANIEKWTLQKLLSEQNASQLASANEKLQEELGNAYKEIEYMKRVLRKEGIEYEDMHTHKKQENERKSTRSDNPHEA
Method: protein-binding microarray
Form: double-stranded DNA, one strand shown
Matrix: in vitro
Concentration: 0.8 µM
Notes: whole 60-bp probe, no competitor
Reading: higher = stronger binding
Endpoint: fluorescence intensity
Shared flanks, not repeated: … GTCTTGATTCGCTTGACGCTGCTG
GAACTCCTGAGACATCAGACCAACGTGTAGAAATAG: 670 a.u.
CTATGTGAAAATGAACGTGACTTGAAACTTTGCTTC: 2160 a.u.
CCTAACTACTATAGTCACGTGACATAGCTTCGTACA: 55000 a.u.
CTACCCGGTAATAGTCACGTGATAAAGGTGCATTTC: 36100 a.u.
CTATGCAATCGTCATCATATGAGAAATGGATATTTC: 548 a.u.
CTAACGCAGCAAACCGTGATCACTGCGAGTATTTTC: 665 a.u.
CTATCTTCTACAGCCCTGATGCAAGTGGAAGTTTTC: 511 a.u.
CTACTCTCAAATTCTCACGAGATTATTTGACTTTTC: 604 a.u.
GAATGGTCCCATGACCATGTGCCGAAATCTTTTTAG: 1990 a.u.
GAAATTCCCTATAATCACGACGATAGGACTGTATAG: 557 a.u.
CTAGCCCCCAACTTGCACGTTTTGGTAGTACATTTC: 560 a.u.
GAACGGCGGCAAAAACGTGACATGCACGTGATGTAG: 22300 a.u.
GAAAGACAGACCCAATTGGTGATGAAGAACAATTAG: 491 a.u.
CTAACACTTCTTGAACACGTTTTACTAAATTGTTTC: 945 a.u.
CTAGGAGTGCTTTTTCACATGAAGGCCATCGGGTTC: 529 a.u.
TGTACGAAGCTATTCCACGAGCGTATAGTAGTTAGG: 515 a.u.
CTATTTTATATTACTCATCAGTTGTGTGTGAAATTC: 607 a.u.
CCTAACTACTATAATCGTGTCACATAGCTTCGTACA: 559 a.u.
GAACGTCAAAATTAACACATGAGTCTACTGAATTAG: 585 a.u.

Series 4
Organism: Saccharomyces cerevisiae
Read-out: binding
Method: yeast competitive growth sequencing
Form: peptide
Strain: cyclin D2-Cln2 fusion strain
Notes: peptide tiling library
Reading: direction not given
Endpoint: enrichment score
KVKRRLDLDIDGLQKE: -0.0975
LRRQLSFSED: 0.461
ARKRLELGNLGNPQ: -1.64
LRRKLFLDGNGSIS: -2.86
RRVLCFDS: -0.889
PPKPLKKLRFDIEGSD: -0.428
GFGFLLFICKLTF: -0.725

Repeated from above (series 3):
CTATGTGAAAATGAACGTGACTTGAAACTTTGCTTC: 2160 a.u.
CCTAACTACTATAGTCACGTGACATAGCTTCGTACA: 55000 a.u.
CTACCCGGTAATAGTCACGTGATAAAGGTGCATTTC: 36100 a.u.
CTATGCAATCGTCATCATATGAGAAATGGATATTTC: 548 a.u.
CTAACGCAGCAAACCGTGATCACTGCGAGTATTTTC: 665 a.u.
CTATCTTCTACAGCCCTGATGCAAGTGGAAGTTTTC: 511 a.u.
CTACTCTCAAATTCTCACGAGATTATTTGACTTTTC: 604 a.u.
GAATGGTCCCATGACCATGTGCCGAAATCTTTTTAG: 1990 a.u.
GAAATTCCCTATAATCACGACGATAGGACTGTATAG: 557 a.u.
